Assay results collected from several papers.
Every numbered part comes from another study and shows a few of its results, in no order.
UniProt Q93WC4, sequence (whole entry, looked up): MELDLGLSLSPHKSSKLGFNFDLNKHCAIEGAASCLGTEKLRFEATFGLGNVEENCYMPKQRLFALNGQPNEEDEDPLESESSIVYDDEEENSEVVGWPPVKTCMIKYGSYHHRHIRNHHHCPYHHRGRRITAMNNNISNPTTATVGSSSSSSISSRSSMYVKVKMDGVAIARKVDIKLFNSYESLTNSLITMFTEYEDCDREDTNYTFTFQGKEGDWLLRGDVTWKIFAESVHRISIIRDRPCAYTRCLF
UniProt P10398, sequence (whole entry, looked up): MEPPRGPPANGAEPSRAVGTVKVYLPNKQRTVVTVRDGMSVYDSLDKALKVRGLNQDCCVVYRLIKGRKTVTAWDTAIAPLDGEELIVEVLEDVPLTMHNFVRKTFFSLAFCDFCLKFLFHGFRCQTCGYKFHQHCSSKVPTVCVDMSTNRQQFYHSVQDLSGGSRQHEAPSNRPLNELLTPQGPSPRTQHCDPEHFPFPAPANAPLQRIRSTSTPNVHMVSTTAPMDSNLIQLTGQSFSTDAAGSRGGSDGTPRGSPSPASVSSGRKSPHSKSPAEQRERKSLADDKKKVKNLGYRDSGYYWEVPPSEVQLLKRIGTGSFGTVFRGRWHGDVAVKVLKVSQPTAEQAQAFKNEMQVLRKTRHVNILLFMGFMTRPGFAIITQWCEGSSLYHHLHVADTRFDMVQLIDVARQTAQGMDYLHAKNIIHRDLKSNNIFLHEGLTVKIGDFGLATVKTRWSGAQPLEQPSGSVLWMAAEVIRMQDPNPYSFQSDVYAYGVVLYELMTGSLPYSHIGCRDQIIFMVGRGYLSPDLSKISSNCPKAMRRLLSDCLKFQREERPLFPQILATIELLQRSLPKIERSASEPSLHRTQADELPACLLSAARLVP
UniProt Q8RYC8, sequence (whole entry, looked up): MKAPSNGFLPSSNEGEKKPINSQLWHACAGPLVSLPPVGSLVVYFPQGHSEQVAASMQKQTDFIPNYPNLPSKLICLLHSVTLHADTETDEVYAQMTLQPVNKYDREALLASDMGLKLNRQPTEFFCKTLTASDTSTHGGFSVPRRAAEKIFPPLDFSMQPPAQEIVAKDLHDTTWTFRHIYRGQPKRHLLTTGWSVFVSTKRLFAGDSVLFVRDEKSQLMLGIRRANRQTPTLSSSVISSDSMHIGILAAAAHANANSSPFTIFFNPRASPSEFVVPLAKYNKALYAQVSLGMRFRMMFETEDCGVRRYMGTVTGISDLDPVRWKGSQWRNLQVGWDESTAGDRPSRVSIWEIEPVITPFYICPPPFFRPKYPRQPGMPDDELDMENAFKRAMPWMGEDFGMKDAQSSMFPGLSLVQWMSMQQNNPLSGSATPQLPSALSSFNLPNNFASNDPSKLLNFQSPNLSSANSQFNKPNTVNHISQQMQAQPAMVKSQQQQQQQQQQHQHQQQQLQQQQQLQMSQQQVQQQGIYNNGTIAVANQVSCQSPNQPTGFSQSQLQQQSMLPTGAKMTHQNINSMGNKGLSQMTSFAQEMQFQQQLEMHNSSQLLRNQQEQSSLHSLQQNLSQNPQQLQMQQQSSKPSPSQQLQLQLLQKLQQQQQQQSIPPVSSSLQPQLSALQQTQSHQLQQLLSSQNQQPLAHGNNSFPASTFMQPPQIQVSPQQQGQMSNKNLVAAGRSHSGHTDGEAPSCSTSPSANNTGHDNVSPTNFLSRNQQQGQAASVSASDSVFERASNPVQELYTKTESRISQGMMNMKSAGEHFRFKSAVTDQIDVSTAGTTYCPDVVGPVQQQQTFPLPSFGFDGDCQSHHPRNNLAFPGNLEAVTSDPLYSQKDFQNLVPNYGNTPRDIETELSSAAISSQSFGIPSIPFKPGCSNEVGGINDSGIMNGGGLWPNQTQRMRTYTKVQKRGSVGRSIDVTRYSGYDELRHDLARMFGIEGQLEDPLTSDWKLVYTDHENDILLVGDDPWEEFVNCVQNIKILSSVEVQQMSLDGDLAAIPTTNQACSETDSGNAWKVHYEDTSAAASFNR
UniProt P36896, sequence (whole entry, looked up): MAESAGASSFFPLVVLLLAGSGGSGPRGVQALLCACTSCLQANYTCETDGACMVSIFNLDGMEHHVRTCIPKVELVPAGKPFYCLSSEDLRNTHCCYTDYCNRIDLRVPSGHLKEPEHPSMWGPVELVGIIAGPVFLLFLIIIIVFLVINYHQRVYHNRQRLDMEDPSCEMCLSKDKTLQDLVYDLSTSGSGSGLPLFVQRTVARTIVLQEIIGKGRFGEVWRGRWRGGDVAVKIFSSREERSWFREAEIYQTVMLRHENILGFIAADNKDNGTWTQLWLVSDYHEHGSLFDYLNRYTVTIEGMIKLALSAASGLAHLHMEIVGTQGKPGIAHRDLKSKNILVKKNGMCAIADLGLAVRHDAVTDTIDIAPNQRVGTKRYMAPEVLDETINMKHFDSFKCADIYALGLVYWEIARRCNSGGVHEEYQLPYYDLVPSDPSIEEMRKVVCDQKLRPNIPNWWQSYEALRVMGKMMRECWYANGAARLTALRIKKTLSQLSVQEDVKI
UniProt Q9C5W9, sequence (whole entry, looked up): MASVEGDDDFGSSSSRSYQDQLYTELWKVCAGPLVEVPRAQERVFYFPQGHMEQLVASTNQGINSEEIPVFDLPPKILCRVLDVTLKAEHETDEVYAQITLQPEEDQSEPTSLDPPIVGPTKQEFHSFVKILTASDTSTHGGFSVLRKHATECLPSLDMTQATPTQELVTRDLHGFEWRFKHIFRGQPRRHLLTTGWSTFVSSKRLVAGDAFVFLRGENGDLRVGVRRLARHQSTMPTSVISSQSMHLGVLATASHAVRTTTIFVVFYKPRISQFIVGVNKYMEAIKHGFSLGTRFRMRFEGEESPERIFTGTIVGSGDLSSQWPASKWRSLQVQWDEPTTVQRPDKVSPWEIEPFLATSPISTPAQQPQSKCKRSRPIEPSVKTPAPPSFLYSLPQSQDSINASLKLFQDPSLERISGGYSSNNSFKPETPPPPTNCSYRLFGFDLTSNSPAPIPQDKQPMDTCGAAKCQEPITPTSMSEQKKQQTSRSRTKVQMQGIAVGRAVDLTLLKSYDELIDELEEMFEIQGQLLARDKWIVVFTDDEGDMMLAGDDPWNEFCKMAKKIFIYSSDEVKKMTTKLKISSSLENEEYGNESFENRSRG
UniProt O24407, sequence (whole entry, looked up): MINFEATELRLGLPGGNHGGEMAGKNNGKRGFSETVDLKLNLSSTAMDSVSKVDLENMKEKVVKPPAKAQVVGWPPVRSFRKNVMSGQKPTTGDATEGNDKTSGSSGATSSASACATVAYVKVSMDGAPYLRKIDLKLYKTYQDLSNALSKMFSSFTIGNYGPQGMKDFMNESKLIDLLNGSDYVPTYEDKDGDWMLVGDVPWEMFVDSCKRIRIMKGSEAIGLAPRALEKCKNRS
UniProt Q15349, sequence (whole entry, looked up): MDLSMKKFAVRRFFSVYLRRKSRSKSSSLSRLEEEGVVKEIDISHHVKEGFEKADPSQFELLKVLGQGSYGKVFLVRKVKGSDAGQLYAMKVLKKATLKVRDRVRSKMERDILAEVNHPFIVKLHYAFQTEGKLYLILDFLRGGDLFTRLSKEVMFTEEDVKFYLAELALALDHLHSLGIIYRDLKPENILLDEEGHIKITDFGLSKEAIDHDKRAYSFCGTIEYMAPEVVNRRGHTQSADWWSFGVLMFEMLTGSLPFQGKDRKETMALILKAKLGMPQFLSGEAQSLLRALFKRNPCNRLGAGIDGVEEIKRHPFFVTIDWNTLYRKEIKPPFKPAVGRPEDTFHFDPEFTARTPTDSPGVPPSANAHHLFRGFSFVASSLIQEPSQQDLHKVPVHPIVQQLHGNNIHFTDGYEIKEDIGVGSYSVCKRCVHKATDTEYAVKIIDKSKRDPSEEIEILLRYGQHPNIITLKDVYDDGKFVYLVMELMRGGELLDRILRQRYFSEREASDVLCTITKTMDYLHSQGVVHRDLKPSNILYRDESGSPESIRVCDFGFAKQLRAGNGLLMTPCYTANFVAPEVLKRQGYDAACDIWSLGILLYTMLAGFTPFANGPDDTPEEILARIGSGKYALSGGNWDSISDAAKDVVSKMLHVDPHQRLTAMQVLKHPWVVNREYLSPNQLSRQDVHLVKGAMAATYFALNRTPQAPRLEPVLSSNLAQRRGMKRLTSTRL
UniProt Q9XED8, sequence (whole entry, looked up): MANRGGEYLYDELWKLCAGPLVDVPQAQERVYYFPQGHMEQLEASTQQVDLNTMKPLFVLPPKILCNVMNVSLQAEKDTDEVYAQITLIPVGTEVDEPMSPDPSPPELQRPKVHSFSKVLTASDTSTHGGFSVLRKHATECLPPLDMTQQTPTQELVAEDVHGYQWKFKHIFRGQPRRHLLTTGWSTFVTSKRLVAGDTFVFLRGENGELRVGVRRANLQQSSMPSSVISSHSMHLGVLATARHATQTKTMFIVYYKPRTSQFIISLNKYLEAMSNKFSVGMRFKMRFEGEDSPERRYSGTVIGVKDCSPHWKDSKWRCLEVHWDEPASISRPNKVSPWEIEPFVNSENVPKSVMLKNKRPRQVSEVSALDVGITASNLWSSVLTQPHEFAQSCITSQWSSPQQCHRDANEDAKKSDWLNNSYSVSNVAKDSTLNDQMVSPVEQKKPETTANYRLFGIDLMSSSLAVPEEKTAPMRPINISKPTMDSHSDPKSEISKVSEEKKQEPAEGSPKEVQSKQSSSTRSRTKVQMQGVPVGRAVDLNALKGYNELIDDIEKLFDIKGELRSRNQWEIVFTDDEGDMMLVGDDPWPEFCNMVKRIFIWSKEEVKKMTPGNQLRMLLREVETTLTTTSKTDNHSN

Sample 1
Target: PABPC1L2, full length, GST fusion (mouse, UniProt A0ABA7IW68)
Method: RNAcompete
Molecule type: RNA
Matrix: in vitro
Concentration: 20 nM
Notes: 7-mer, probes averaged, single round
Baseline: mean of 7-mers
Direction: higher = stronger binding
Quantity: 7-mer Z-score
Construct (chain): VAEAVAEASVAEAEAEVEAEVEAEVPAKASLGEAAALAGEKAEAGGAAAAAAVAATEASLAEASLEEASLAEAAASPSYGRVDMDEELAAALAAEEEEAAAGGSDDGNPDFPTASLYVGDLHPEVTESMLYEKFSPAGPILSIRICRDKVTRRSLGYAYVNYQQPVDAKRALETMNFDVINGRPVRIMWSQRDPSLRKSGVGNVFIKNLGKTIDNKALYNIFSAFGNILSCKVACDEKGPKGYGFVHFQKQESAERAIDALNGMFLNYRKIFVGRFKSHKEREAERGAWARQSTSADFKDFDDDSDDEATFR
AUGUGAG: -0.0482
UUUGGAA: -0.126
UCUGGCA: -0.0863
CCCCCAU: -0.432
UAGAGGU: -0.0917
AGACACC: -0.278
CCCUUUC: -0.481
UUGCCUA: -0.311

Sample 2
Compound: FC(F)(F)c1ccc(/C=C/c2nc(COc3ccc(CCCCn4ccnn4)cc3)co2)cc1
Read-out: enzyme activity
Action: inhibitor
Concentration: 0.5 µM
Baseline: control
Quantity: remaining activity
Activin receptor type-1B (ACVR1B, Homo sapiens, UniProt P36896): 92.8%
Ephrin type-A receptor 3 (EPHA3, Homo sapiens, UniProt P29320): 92.7%
Tyrosine-protein kinase Mer (MERTK, Homo sapiens, UniProt Q12866): 97.9%
Serine/threonine-protein kinase A-Raf (ARAF, Homo sapiens, UniProt P10398): 102%
Wee1-like protein kinase (WEE1, Homo sapiens, UniProt P30291): 101%
Tyrosine-protein kinase FRK (FRK, Homo sapiens, UniProt P42685): 99%
Fibroblast growth factor receptor 3 (FGFR3, Homo sapiens, UniProt P22607): 88.4%
Casein kinase I isoform gamma-2 (CSNK1G2, Homo sapiens, UniProt P78368): 96.7%
Ribosomal protein S6 kinase alpha-2 (RPS6KA2, Homo sapiens, UniProt Q15349): 96.8%
Glycogen synthase kinase-3 beta (GSK3B, Homo sapiens, UniProt P49841): 100%
Serine/threonine-protein kinase Nek1 (NEK1, Homo sapiens, UniProt Q96PY6): 94.5%
Mitogen-activated protein kinase kinase kinase 14 (MAP3K14, Homo sapiens, UniProt Q99558): 95.8%
Serine/threonine-protein kinase ULK2 (ULK2, Homo sapiens, UniProt Q8IYT8): 99.6%

Sample 3
Compound: CS(=O)(=O)NCC[C@H](NC(=O)c1cncc2c1cnn2-c1ccc(F)cc1)c1ccnc(S(C)(=O)=O)c1
Method: competition with immobilised ligand
Concentration: 1 µM
Quantity: remaining binding
Bone morphogenetic protein receptor type-1B (BMPR1B, Homo sapiens, UniProt O00238); cell-free assay: 100%
Cyclin-dependent kinase-like 1 (CDKL1, Homo sapiens, UniProt Q00532); binding: 84%
Phosphatidylinositol 4,5-bisphosphate 3-kinase catalytic subunit alpha isoform (PIK3CA, Homo sapiens, UniProt P42336, Q546K); cell-free assay: 73%
Maternal embryonic leucine zipper kinase (MELK, Homo sapiens, UniProt Q14680); cell-free assay: 99%
LIM domain kinase 2 (LIMK2, Homo sapiens, UniProt P53671); cell-free assay: 100%

Sample 4
Substance: IAA8 (Arabidopsis thaliana, UniProt Q38826)
UniProt Q38826, sequence (whole entry, looked up): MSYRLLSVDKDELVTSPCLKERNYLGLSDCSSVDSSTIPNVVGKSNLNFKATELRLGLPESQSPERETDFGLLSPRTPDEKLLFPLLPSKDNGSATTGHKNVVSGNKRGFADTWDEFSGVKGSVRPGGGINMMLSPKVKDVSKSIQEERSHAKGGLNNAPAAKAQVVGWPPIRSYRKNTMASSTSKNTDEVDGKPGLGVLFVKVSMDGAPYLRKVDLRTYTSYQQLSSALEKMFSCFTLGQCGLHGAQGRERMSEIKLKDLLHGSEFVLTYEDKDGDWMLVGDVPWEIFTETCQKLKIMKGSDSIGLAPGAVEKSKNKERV
Method: two-hybrid
Direction: higher = firmer interaction
Quantity: positive tests
ARF18 482-602 (Arabidopsis thaliana, UniProt Q9C5W9); baseline: out of 4 tests: 0
ARF19 948-1086 (Arabidopsis thaliana, UniProt Q8RYC8); baseline: out of 3 tests: 2
IAA16 (Arabidopsis thaliana, UniProt O24407); baseline: out of 4 tests: 4
ARF9 519-638 (Arabidopsis thaliana, UniProt Q9XED8); weak activation fusion; baseline: out of 4 tests: 1
IAA19 (Arabidopsis thaliana, UniProt O24409); baseline: out of 2 tests: 2
IAA29 (Arabidopsis thaliana, UniProt Q93WC4); baseline: out of 4 tests: 0
IAA17 (Arabidopsis thaliana, UniProt P93830); baseline: out of 4 tests: 4
IAA31 (Arabidopsis thaliana, UniProt Q8H174); baseline: out of 4 tests: 2
